Measured values gathered from unrelated publications.
A part holds a random share of what one study measured. Changes are numbered by the printed parent chain.

Block 1 — technique: protein-binding microarray; molecule type: double-stranded DNA, one strand shown; matrix: in vitro; concentration: 940 nM top; setting: 60-bp whole probe; together with: salmon DNA 0.4 mg/ml; relative to: random background probes; reading: higher = stronger binding; quantity: fitted relative affinity; all sequences stand within: GCCTAGCAC … GTCTTGATTCGCTTGACGCTGCTG
Target: Interferon regulatory factor 5, full length, phosphomimetic (IRF5, Homo sapiens, UniProt Q13568-2, residues 1-514, S451D/S453D/S456D/S462D)
GTGTGTCTGATTATTTACATGTGCTAG: -0.0501 z-score
GACGAACTGCTTCTCCTGACGTGCTAG: -0.0909 z-score
TTAGATCGCAGTCTCGATTAGTGCTAG: 1.98 z-score
TTAGGTTTCCTACAGCTTTAGTGCTAG: 0.609 z-score
TCAAGTTTGACATCTTCAACTGTGCTA: -0.182 z-score
ATAGGTATCGGACTGGGTTAGTGCTAG: 2.96 z-score
TTTGGACTGGGGTTTCGGTTAGTGCTA: 5.84 z-score
GGTTTTCTCTATTGCTTTCTGTGCTAG: 3.16 z-score
TGTTTTTGCTTTCTTTATGTGTGCTAG: 2.23 z-score
TTAGGACTGGGGTTTCGGATAGTGCTA: 2.14 z-score
TTAGGACTGCTTTTCGTTTAGTGCTAG: -0.018 z-score
TCAATGTTCCCTATTTAACTGTGCTAG: 1.07 z-score
TTAGGACTGCTAATGCTTTAGTGCTAG: -0.507 z-score
TCATACATGCATATAGTACTGTGCTAG: -0.0463 z-score
GTCGGTATCCTTATCCTGACGTGCTAG: 1.07 z-score
CTGCTGCAGGCAGCACGCTGGTGCTAG: -0.959 z-score
TTAGGTCTCGGACTGAGTTAGTGCTAG: 1.11 z-score
GACGATTTCAGCTTCGAGACGTGCTAG: -0.135 z-score
GACGACCTCAGTATCGAGACGTGCTAG: 1.52 z-score
TCATTTCTAATTTACTTACTGTGCTAG: 0.932 z-score
GCTCCAGGAAGCCTTGCCTGGTGCTAG: -0.565 z-score
GAAGGTTTCGACTTTCGGGACGTGCTA: 6.48 z-score
TTAAGTTTCGGGTATCGGTTAGTGCTA: 11.6 z-score
TCAATACTGATTTCCACACTGTGCTAG: 0.55 z-score
TTAGGTATCGACTAGCGGTTAGTGCTA: 6.36 z-score

Block 2 — technique: DHFR PCA, deep sequencing; matrix: yeast; together with: (+)-ABA 2500 µM; relative to: wild-type fitted maximum; reading: higher = stronger binding; quantity: relative binding score
Target: ABI1, truncated, D143A, DHFR fusion (Arabidopsis thaliana)
Setting: methotrexate growth selection, single substitutions
Parent: PYL1, truncated, DHFR fusion (Arabidopsis thaliana); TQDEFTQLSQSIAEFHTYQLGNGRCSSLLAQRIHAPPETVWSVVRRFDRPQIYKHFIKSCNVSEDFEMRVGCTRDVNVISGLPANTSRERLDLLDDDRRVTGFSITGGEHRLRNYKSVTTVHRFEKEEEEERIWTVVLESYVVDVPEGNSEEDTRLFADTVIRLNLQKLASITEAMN; partner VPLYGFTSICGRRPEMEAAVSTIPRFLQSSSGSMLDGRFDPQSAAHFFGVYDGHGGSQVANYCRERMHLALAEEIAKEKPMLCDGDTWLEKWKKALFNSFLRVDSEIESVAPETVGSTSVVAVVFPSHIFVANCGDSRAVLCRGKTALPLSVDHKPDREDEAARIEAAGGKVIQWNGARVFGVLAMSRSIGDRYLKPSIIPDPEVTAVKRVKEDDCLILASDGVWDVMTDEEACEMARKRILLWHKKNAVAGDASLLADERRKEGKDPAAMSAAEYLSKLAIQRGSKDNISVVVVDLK
V76M: 84.3%
Q7I: 78.1%
E38V: 86.5%
Y115Q: -6.55%
P36T: 94.5%
V142G: 85.5%
I105E: 60.8%
E130I: 107%
S11Q: 104%
A170Y: 58.8%
V76F: 57%
V76P: 15.2%
A158Y: 19.6%
E125P: 101%
K126S: 104%
V137C: 95.4%
E4P: 99.2%
N61W: 95.9%
T119F: 78.3%
T39A: 101%
D96W: 67.9%

Block 3 — target: CCNA2, cyclin fold, Cln2 fusion (human); technique: yeast growth competition, sequencing; matrix: yeast; setting: strong parent motif; relative to: not given; reading: higher = stronger binding; quantity: normalised enrichment score
Parent: CDKN1B docking peptide (human); PSACRNLFGPVDH; partner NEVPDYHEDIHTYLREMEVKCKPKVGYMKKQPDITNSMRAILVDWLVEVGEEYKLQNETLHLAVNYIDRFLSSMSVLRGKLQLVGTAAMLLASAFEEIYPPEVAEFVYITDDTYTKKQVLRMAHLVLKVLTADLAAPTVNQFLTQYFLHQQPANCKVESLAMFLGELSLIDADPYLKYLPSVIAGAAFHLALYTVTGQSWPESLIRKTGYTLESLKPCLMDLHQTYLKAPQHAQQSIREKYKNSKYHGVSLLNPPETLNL
PSACRNLFGPVDI [H13I]: 4.03
PSACRNLVGPVDH [F8V]: -0.468
PSAYRNLFGPVDH [C4Y]: 1.62
PSASRNLFGPVDH [C4S]: 2.33
PSACRNLFGPYDH [V11Y]: 4.21
RSACRNLFGPVDH [P1R]: 4.69
PSACRNLFGPEDH [V11E]: 3.37
PAACRNLFGPVDH [S2A]: 3.85
PEACRNLFGPVDH [S2E]: 1.9
PSACRFLFGPVDH [N6F]: 0.513
PSACRNLFGPVYH [D12Y]: 3.81
PSACRNLFGPVDM [H13M]: 3.49
PSACKNLLGPVDH [R5K F8L]: 0.445
PSAVRNLFGPVDH [C4V]: 2.65
PSACRNEFGPVDH [L7E]: -0.0895
PSACDNLFGPVDH [R5D]: -0.208
PSACRALFGPVDH [N6A]: 3.21
PSACRNLFDPVDH [G9D]: 1.93
PSACRNLFGIVDH [P10I]: 2.92
PVACRNLFGPVDH [S2V]: 3.13
PSACRNLFFPVDH [G9F]: 1.53
PSACRNLFGPVGH [D12G]: 4.05
PSACRTLFGPVDH [N6T]: 1.69
PSACRNLSGPVDH [F8S]: 0.809
PSACRNLFGPVDC [H13C]: 3.9

Block 4 — target: BATF, bZIP domain (human); technique: DHFR protein complementation; matrix: yeast; relative to: wild-type JUN-FOS pair; reading: higher = stronger binding; quantity: binding fitness
Setting: single substitutions, most at no-binding floor
Parent: JUN, bZIP domain (human); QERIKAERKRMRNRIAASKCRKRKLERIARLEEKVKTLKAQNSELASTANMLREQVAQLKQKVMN; partner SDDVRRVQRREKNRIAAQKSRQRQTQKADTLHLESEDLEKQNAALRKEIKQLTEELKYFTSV
V56W: -0.47 natural log
S43I: 0.0242 natural log
N42L: -0.671 natural log
K39E: -0.255 natural log
L38W: -0.756 natural log
L52H: -1.08 natural log
A40V: 0.00528 natural log
E32D: 0.0014 natural log
Q55R: 0.0411 natural log
E33K: -0.212 natural log
L38K: -0.599 natural log
L45C: -1.14 natural log
S43T: 0.0789 natural log
L52P: -1.17 natural log
R30P: 0.0872 natural log
K36D: -0.0982 natural log
N42I: -1.1 natural log
V35G: -0.846 natural log

Block 5 — technique: RNA Bind-n-Seq; molecule type: RNA; matrix: in vitro; concentration: 1 µM; setting: whole 134-nt RNA, ends assumed; together with: 150 mM KCl; relative to: input library; reading: higher = stronger binding; quantity: log2 enrichment
Target: Ras GTPase-activating protein-binding protein 1, C-terminal RGG region (G3BP1, Homo sapiens, UniProt Q13283)
UniProt Q13283, sequence (whole entry, looked up): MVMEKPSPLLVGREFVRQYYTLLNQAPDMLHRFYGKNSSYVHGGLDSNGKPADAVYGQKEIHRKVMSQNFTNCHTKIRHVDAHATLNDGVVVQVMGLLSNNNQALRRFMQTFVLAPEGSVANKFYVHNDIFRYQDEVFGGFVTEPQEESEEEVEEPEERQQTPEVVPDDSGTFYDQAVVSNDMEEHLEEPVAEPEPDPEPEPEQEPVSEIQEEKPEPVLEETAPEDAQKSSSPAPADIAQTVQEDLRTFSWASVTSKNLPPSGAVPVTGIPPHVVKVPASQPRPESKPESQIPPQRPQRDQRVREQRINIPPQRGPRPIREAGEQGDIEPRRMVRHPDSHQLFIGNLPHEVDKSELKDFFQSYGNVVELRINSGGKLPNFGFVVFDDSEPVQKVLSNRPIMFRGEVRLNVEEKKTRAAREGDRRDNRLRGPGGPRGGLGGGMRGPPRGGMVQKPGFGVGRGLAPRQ
All sequences stand within: GGGAGUUCUACAGUCCGACGAUC … UGGAAUUCUCGGGUGUCAAGG
CAAGUCCUGUGCUACACAUCGUAUGUACCGAAUCGGGAAAGGGGAAAGGGAAAGGGAAAGUAUUAUGUUACGCCGUUCGGAUCUGCACUU: 1.54
UCCUGUGCUACACAUCGUAUGUACCGAAUCGGGUUUUUGGGAAAAAGGGUUUUUUUGGGAAAGUAUUAUGUUACGCCGUUCGGAUCUGCA: -0.521
AAGUCCUGUGCUACACAUCGUAUGUACCGAAUCGGGAAAAGGGAAAAGGAAAAGGGGAAAGUAUUAUGUUACGCCGUUCGGAUCUGCACU: -0.904
ACCAUGCAGGUGGGCAUCUUUGGGAAAAAGGGCAAGGGGGGGAUAGGGAGGGGGGUAACACUUUGGGAACAGGUGGUCCCAGGUCGUUUC: -0.9
UGCUGGUGAGCUGCUGCCUGGCAGGCCACGUCUGCGUGUGGGACGCGCAGACCGGGGAUUGCCUAACGCGCAUUCCGCGCCCAGGGUAGG: -1.31
CCUCAAGUCCUGUGCUACACAUCGUAUGUACCGAAUCGGAGGGGAGGGGAGGAAAGUAUUAUGUUACGCCGUUCGGAUCUGCACUUCCAG: -0.64
CCUCAAGUCCUGUGCUACACAUCGUAUGUACCGAAUCGGGGAGGAGGGGAGGAAAGUAUUAUGUUACGCCGUUCGGAUCUGCACUUCCAG: -0.483
UCCUGUGCUACACAUCGUAUGUACCGAAUCGGGGUUUUUGGGGUUUUUGGGGUUUGGGGAAAGUAUUAUGUUACGCCGUUCGGAUCUGCA: 1.79
UAACUUUAGAGGAGGAUCUGAUGGAUAUGGCAGUGGACGUGGAUUUGGGGAUGGCUAUAAUGGGUAUGGAGGAGGUCCUGGAGGUGGCAA: -0.504
AAGUCCUGUGCUACACAUCGUAUGUACCGAAUCGGGAGGGUUUGGGAAAAAAAGGGAAAGUAUUAUGUUACGCCGUUCGGAUCUGCACUU: -0.0815
UAACUUUAGAGGGGGAUCUGAUGGAUAUGGCAGUGGACGUGGAUUUGGGGAUGGCUAUAAUGGGUAUGGAGGAGGACCUGGAGGUGGCAA: -0.0934
AGUCCUGUGCUACACAUCGUAUGUACCGAAUCGGGGUUUUGGGUUUUGGGGUUUUGGAAAGUAUUAUGUUACGCCGUUCGGAUCUGCACU: -0.788
UUUCUAGGGAAGGUGCUUCUGGAAAAGUUGCUGAGGUCUUGUCCUAAGGUGAAUUCAGUAUAUGUUUUGGUGAGGCAGAAAGCUGGACAG: -2.05
CAAGUCCUGUGCUACACAUCGUAUGUACCGAAUCGGGUUUGGGGUUUGGUUUGGGAAAGUAUUAUGUUACGCCGUUCGGAUCUGCACUUC: -0.843

Block 6 — technique: universal PBM; molecule type: double-stranded DNA, one strand shown; matrix: in vitro; concentration: not given; reading: higher = stronger binding; quantity: E-score
Target: Sal-like protein 4, full length isoform B (SALL4, Homo sapiens, UniProt Q9UJQ4-2, residues 1-616)
Setting: 8-mer, flanks averaged, mean of replicates
Residues (chain): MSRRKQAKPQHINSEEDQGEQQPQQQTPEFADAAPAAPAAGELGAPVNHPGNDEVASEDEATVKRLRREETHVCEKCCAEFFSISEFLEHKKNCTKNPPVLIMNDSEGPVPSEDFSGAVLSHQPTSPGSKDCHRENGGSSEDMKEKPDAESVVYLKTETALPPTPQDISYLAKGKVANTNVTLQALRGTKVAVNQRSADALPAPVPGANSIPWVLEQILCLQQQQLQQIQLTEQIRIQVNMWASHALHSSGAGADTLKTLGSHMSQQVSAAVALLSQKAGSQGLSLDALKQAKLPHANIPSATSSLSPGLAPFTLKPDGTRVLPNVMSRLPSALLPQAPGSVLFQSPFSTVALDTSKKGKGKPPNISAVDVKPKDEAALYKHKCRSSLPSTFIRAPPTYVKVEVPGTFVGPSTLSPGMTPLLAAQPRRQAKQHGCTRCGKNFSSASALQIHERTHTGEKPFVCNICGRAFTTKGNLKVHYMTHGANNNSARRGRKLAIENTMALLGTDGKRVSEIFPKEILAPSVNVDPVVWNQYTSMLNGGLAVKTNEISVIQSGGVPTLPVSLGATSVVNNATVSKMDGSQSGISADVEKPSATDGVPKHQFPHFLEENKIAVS
CGTCTGGA: -0.254
ATTAGTGG: 0.0768
AGTTAGCA: 0.0915
AATCCGAA: 0.057
AGAGCTCC: -0.292
CCGCCAAA: -0.0466
ACAGGGCA: -0.0813
ACGCCAGC: -0.31
CAGCAGAA: -0.0393
CAGTGAGG: -0.207
ACCGCAGG: -0.148
ATGGATCC: 0.0565
CTTCCACA: 0.0255
CATCTAAC: 0.0523
CCAACGAA: -0.129
CCTGGCCA: -0.144
AGGAACTG: -0.0937
AACCATAA: 0.343
ATAGAGTC: -0.0701
CCAAATAA: 0.192
ACTACACG: 0.0758
GTAGAAAC: 0.00724

Mixed results
PhoQ, residues 284 288 289 292 302 303 SCKMEA — fold induction (PhoP, residues 12 14 15 18 19 NQAHL (Escherichia coli, UniProt P23836); Sort-seq, measured: YFP reporter; E. coli; PhoQ-PhoP variant library, together with: 10 µM Mg2+; relative to: high Mg2+ state, higher = stronger signaling): 19.3
